Published values from different studies.
“And” joins repeats or separate records; there may be more than shown. ± marks the error that the study gave.

CN(C)C(=O)Oc1cccc([N+](C)(C)C)c1  train-of-four ratio (neuromuscular block reversal; rat; dose not given, 12.5 (unit not given), with: cisatracurium; reference: T1 twitch): 91.1
O=C1CCC(N2C(=O)c3ccccc3C2=O)C(=O)N1 (racemic)  exchange rate constant (deuterium-hydrogen exchange; aqueous phosphate buffer; pH 7.4, 37 °C): -0.0565 h⁻¹
NC(=O)c1cnc2[nH]ccc2c1N[C@@H]1[C@@H]2CC3C[C@H]1C[C@@](O)(C3)C2  percent change (regulatory T cells, flow cytometry; Japanese humans, peripheral blood; 60 mg single dose; reference: baseline): -0.38%
O=C(O)CNC(=O)Cc1ccccc1  sarcomere length (ventricular cardiomyocytes, C57BL/6 mouse; dose not given, 0.292 s): 1.7 µm
CCc1c(C)nc(-c2ccc(Cl)s2)nc1Nc1ccc(CC(=O)O)cc1  adipocyte area (C57BL/6J mouse, high-fat diet MASH model, white adipose tissue; intraperitoneal, 0.3 mg/kg daily, 60% fat diet for 12 weeks, dosed final four weeks; reference: untreated): no effect
CNCc1cc(-c2ccccc2F)n(S(=O)(=O)c2cccnc2)c1  inhibition (histamine-stimulated acid secretion; pylorus-ligated rat; oral, 2 mg/kg, with: histamine): 48.1%
N#Cc1ccc2c(c1)[C@H]1CCCN(C(=O)c3ccc4[nH]cnc4c3)[C@H]1C2  change from baseline (refers to: FPG; human; 20 mg once daily, day 28, adjusted mean; reference: placebo): 5.7 mg/dL
N#Cc1ccn2c(-c3ccncc3)c(-c3ccc(F)cc3)nc2c1  log2 fold change (kinase binding, competitor, MIB/MS competition, refers to: YAK1; Candida albicans cell lysate; 1 µM; reference: DMSO): 0.327
CC[C@H](CC[C@@H](C)[C@H]1CC[C@H]2[C@@H]3CC=C4C[C@@H](O[C@@H]5O[C@H](CO)[C@@H](O)[C@H](O)[C@H]5O)CC[C@]4(C)[C@H]3CC[C@]12C)C(C)C  lipid accumulation (Oil Red O; 3T3-L1, mouse; 5 µM, day 8; reference: vehicle): 47.6 ± 3.09%
CCCCc1nc2c(N)nc3ccccc3c2n1Cc1ccc(N)cc1  concentration (IL-6 release, ELISA; PBMC, human; 24 h): ~10 µM
O=C(O)CNC(=O)C(CS)Cc1ccccc1 (stereo not drawn)  Leu-enkephalin concentration (LC-MS/MS, refers to: extracellular Leu-enkephalin; mouse striatal brain slices; 10 µM, 20 min, with: 50 mM KCl): 2230 pM and 1370 pM and 3140 pM and 986 pM and 2490 pM and 4730 pM and 3920 pM and 5050 pM
CCN1CCN(Cc2ccc(Nc3ncc(F)c(-c4cc(F)c5nc6n(c5c4)[C@H](C)CCC6)n3)nc2)CC1  not evaluable response (human advanced solid tumours; 400 mg, phase Ia monotherapy RECIST 1.1): 0%
COc1cc(Nc2ncc3c(n2)-c2ccc(Cl)cc2C(c2c(F)cccc2OC)=NC3)ccc1C(=O)O  median response score (mice, SK-N-AS neuroblastoma xenograft; 20.8 mg/kg; direction not given): 0
CN[C@@H]1COc2c(S(=O)(=O)NC(=O)Nc3c4c(cc5c3CCC5)CCC4)cnn2C1  inhibition (refers to: IL-18; human participants, whole blood ex vivo; 300 mg twice daily, multiple doses, 156 h, IL-18, circulating, adjusted for, with: LPS/ATP; reference: baseline): 95.8%
CCCCCN1C[C@H](O)[C@@H](O)[C@H](O)[C@@H]1CO  decreased sphingolipid species (Hexb-/- mouse, cerebral cortex; 30 mg/kg/day, unit not given; reference: untreated): 1
CCCCc1oc2ccccc2c1C(=O)c1cc(I)c(OCCN(CC)CC)c(I)c1  time to AF recurrence (Holter ECG; dog, persistent AF model; iv, 3 mg/kg): 12.9 h
COc1ccc2c(c1)CN(C(=O)CCN1CCC(Cc3ccccc3)CC1)CC[S@@+]2[O-]  ventricular ERP prolongation (anaesthetised Beagle dogs; intravenous, 0.1 mg/kg, pacing cycle length 250 ms): 10.3%
Cn1cc(Nc2nccc(-c3ccc4c(c3)CN(C3COC3)CC[C@H]4NC(=O)c3cn(C(C)(C)C)nn3)n2)cn1  pathway activation z-score (refers to: Huntington's Disease Signaling; splenic B cells, Mus musculus; 30 mg/kg, with: IgD activation; reference: vehicle, direction not given): 2.2

Excerpt of the above:
N#Cc1ccc2c(c1)[C@H]1CCCN(C(=O)c3ccc4[nH]cnc4c3)[C@H]1C2  change from baseline (refers to: FPG; human; 20 mg once daily, day 28, adjusted mean; reference: placebo): 5.7 mg/dL
O=C(O)CNC(=O)C(CS)Cc1ccccc1 (stereo not drawn)  Leu-enkephalin concentration (LC-MS/MS, refers to: extracellular Leu-enkephalin; mouse striatal brain slices; 10 µM, 20 min, with: 50 mM KCl): 2230 pM and 1370 pM and 3140 pM and 986 pM and 2490 pM and 4730 pM and 3920 pM and 5050 pM
